Measurements gathered from unrelated publications.
Parts stem from different laboratories: compare values within a part only.

Set 1
Target: Hepatocyte nuclear factor 3-beta, forkhead domain (FOXA2, Homo sapiens, UniProt Q9Y261, residues 142-269)
Technique: protein-binding microarray
Form: double-stranded DNA, one strand shown
Sample: in vitro
Concentration: not given
Setting: k-mer, scored over probes, only values ≥0.25
Reading: higher = stronger binding
Target sequence (chain): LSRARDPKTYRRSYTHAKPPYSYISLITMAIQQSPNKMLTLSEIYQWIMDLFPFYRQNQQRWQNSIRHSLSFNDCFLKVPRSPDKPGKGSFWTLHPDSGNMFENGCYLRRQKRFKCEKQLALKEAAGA
Strand | E-score
ATCAGTCA | 0.252
ACATAGGT | 0.279
TATGTTGA | 0.331
AGAGTAAA | 0.274
TAACTTCA | 0.321
ATTTACTG | 0.27
GTACAACA | 0.274
ATGGCAAC | 0.265
TGTTTAAA | 0.32
GTATCTAA | 0.325
CATTAACA | 0.267
ATATTTAA | 0.383
CACTAACA | 0.271
CGTGTGTA | 0.295
ATACAATG | 0.294
AAGTAATT | 0.301
ATTAAATA | 0.32
ACAGTATG | 0.264
ATTATGTC | 0.266
AGTAATTA | 0.343
GGTATACA | 0.316
AGCAATAC | 0.252
CATACATG | 0.361
ACATATGA | 0.254
AATTACAA | 0.344

Set 2
Target: Interferon regulatory factor 7, full length, phosphomimetic (IRF7, Homo sapiens, UniProt Q92985, residues 1-503, S471D/S472D/S475D/S476D/S477D/S483D/S484D/S487D)
UniProt Q92985, sequence (whole entry, unmodified, looked up): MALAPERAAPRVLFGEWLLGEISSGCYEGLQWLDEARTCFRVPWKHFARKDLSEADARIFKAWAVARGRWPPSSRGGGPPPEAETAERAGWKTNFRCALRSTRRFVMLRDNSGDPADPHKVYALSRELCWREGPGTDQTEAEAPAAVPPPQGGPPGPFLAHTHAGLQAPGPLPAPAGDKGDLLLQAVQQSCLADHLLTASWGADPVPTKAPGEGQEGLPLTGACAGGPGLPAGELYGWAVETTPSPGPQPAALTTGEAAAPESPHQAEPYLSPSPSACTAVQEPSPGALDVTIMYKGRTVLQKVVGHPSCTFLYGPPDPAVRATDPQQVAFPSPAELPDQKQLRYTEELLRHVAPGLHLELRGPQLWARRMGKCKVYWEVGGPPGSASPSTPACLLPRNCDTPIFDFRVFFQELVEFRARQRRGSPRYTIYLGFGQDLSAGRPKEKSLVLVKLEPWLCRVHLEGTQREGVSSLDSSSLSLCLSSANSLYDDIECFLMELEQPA
Technique: protein-binding microarray
Form: double-stranded DNA, one strand shown
Sample: in vitro
Concentration: 2200 nM top
Setting: 60-bp whole probe
With: salmon DNA 0.4 mg/ml
Reference: random background probes
Reading: higher = stronger binding
Shared flanks, not repeated: GCCTAGCAC … GTCTTGATTCGCTTGACGCTGCTG
Strand | fitted relative affinity [z-score]
TTCTGGTTCCCATTCCAGGGGTGCTAG | 1.82
AAAATTTTGCTTCTAGAACAGTGCTAG | 0.0576
GACGGTTTCGTGACTGGGGACGTGCTA | 2.37
GATGGAAACTTAAACTAGAAAGTGCTA | -0.745
TGTACTCTCTCCATGTGTTTGTGCTAG | 2.11
GACGGACTGGGATTTCGGGACGTGCTA | -0.0103
TACTTTCTACGTCTGATTTTGTGCTAG | 3.71
TTAGGACTGCTTCTCCTCTAGTGCTAG | 0.679
GACGGTATCGGTCCCGGGACGTGCTAG | -0.165
TTAGGTCTCCGTCTCCTTTAGTGCTAG | 0.928
TCATCACTCTGTCCCTCACTGTGCTAG | 2.1
TCAATTATATATATCATACTGTGCTAG | 0.711
AACGGACTGGACTTTCGGGACGTGCTA | 1.89
TTAGGTATCATACTGCTTTAGTGCTAG | 0.598
GACGAACGGGGGACTGGAGACGTGCTA | 0.617
CTCTCCATGTGTTTAAAAAGGTGCTAG | 1.04
TTTCTCTGCTCTTTTCAACAAGTGCTA | 2.39
TTAGATTTCAGTATCGATCAGTGCTAG | 0.66
GACGGACTGGGGTTTCGGGAGGTGCTA | -0.0687
TAGGGACTCAGGTCTCCCTTGGTGCTA | -0.533
GACGGTTTCGACAATGGGGACGTGCTA | 1.98
GACGGTATCGGTATCTGGACGTGCTAG | 0.716

Set 3
Target: Sal-like protein 4, full length isoform B (SALL4, Homo sapiens, UniProt Q9UJQ4-2, residues 1-616)
Technique: universal PBM
Form: double-stranded DNA, one strand shown
Sample: in vitro
Concentration: not given
Setting: 8-mer, flanks averaged, mean of replicates
Reading: higher = stronger binding
Target sequence (chain): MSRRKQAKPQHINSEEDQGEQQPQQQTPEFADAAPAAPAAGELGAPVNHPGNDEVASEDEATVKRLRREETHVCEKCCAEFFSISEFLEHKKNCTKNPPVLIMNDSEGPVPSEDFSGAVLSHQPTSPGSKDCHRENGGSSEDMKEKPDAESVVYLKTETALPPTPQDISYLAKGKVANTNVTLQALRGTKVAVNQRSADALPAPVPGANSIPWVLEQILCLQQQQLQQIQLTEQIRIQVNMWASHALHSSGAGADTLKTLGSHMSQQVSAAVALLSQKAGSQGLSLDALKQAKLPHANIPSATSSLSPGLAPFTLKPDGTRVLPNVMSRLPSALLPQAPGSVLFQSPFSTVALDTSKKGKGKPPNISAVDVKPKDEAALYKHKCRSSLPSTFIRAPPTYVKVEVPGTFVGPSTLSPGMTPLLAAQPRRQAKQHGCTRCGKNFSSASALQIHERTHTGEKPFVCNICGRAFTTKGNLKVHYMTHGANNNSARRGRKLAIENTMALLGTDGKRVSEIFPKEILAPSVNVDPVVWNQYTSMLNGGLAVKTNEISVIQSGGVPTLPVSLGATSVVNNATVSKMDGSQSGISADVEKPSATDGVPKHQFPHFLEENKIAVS
Strand | E-score
CTAGTATC | -0.0174
ACGAGAGC | -0.112
ACTCTAGC | -0.0137
ATATTCGA | 0.264
ATTCAGAC | 0.1
GTGGCGGA | -0.258
AGTTGCGA | 0.0793
GCCAAGAA | -0.13
GACCGCTC | -0.12
CATACTTC | 0.154
CACAAACA | 0.19
CGGAACCG | -0.376
AGGGTGGC | -0.159
CTAGGAAA | 0.118
CCAACGAA | -0.129
GAAGCAGA | -0.0302
TGAGCAAA | 0.0285
GCAAGCAA | 0.109
CCAGCGCC | -0.295
CTGGTGGC | -0.314
TCACGGGA | 0.019
AAAACTTA | 0.346
CAGAACTA | 0.109

Set 4
Target: RNA binding protein fox-1 homolog 2, RRM domain, GST-SBP tag (RBFOX2, Homo sapiens, UniProt O43251-10, residues 100-194)
Technique: RNA Bind-n-Seq
Form: RNA
Sample: in vitro
Concentration: 365 nM
Setting: natural RNA segment, single round, ends assumed
Reference: no-protein control
Reading: higher = stronger binding
Shared flanks, not repeated: GGGAGUUCUACAGUCCGACGAUC … UGGAAUUCUCGGGUGCCAA
Target sequence (chain): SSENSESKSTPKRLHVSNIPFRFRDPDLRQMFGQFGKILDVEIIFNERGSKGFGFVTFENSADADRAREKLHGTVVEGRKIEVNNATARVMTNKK
Strand | RBNS enrichment (R)
UGAGCUACAUAUGGUCGUCAUUUUCUUCAAACUCUCAAAAUAGGAAAGUGGAAAUUUUUCUCCCCUAUAUAAAAUUAUUCUGCCUAGCAGAAAUGCCAGAAAUAAAUUAA | 0.579
GAGUUAUAUUUUGUACUAUGGUUUAGGGCUAUGACUAAUAUUUCAGGCCAUUUCCAGUGAAAGAAACUUAGUUUUACAAGAAAACAUUUGCUACUGAAUGCUUACACUAA | 0.543
AAAUUAACACAGGAUAAUUAGUGUCACCGUUUAUUCCAAACUAGGCCAGCUGGGUUUCCAGCUUUUCUUCUACUGGUCUGAUGUUUUAUAAAUGGAAACCUGGUUUUUCU | 0.313
GUAAAUUCACAGCAGUAAGAUAAUAUAAAUUUUGUUGAAUGUAUUAACAUCAUAUGGUCUGAAAAUGUGGGUUUUUAUUUGGCACAUUUAAAUAAAAUGUUUCUAACUAG | 0.744
CUCACAGCAAGCACAAGUUGUCUGCACCACUUGGUUUCUGACUGAAGGGGAAGUACAGGACUACAUGGAAUCUGAUUUCUGGUGUUGCUUAUUACCAAAAAUGACAGAAU | 0.767
UUUAUGUGGUUUAUUCCUGCAAGGUUGUUUUAAACUGAAAUAGAACUGCUAGUGUGAUUGGUUGAUCAGCAAAACAGCUGCUCUCAUUUUGUUUUGGAGGAACCCUGGUG | 1.55
UUGGUUCCAGUGUCAGAAGCAAGCACAGUUAUUGCUGUGUCUUCAGCUCACAGAGCCGCGUCCCUCGAAGCCGUGAGCUACGCCAUUGAUUCUUUAAAAGCCAAGGUGCC | 0.257
GCCCCAAACUUUGUUUACACUGCUAGGGAAGGAGGAGCUCCGGCAAGGGAAUAACUAGGCUGGUUAAAAGAGUCAGGGCUACUGGAGCCAAGGUGGGGACCUUUGAGGCU | 0.889
UUCUCUUAAGAGAGGCUGUGGGUAUGCUGGAGCUGGCCUUCCGGUCAGGCUCUGGGCAGCAGGUGUCAGGCUGCUCCUAUCAGUGAGUGGGGCCACUGCUGAUAUUUGGC | 0.425
ACACAUGACCUUGGAGCCUCUUGGCCUUCAGAGCAGAGGCAAACCCACCACAGGGCAGCUGCGUUUUAGGAAGAGCAAAUGAAACUCCACACCAUUCUUCUAGAUCUCUG | 0.301
AAAGGGAACUUUUUGUCUACGCUAAGUCCCUGGCUUCCUCUUAAUCGGUUGGUCUUGCUAAUUGAAGCUCAGAAAAAUAUAGAUGGUCUCUCCCGACCCUGUUUGUGGUG | 1.68
GGGUAUUACCUACCAAGAUAAUGAGAGCUUCUAAGGUUGAGGGGAGCUGAAUAGUUUGCACAAGAACGGGAUGCUAGUAAAAACAUAAAAAUAACUCGAAUCAAAUUCCA | 0.964

Set 5
Target: Histone acetyltransferase KAT6A, winged helix 1, GST fusion (KAT6A, Homo sapiens, UniProt Q92794, residues 1-85)
Technique: protein binding microarray
Form: double-stranded DNA, one strand shown
Sample: in vitro
Concentration: not given
Setting: 8-mer, flanks averaged, mean of 2 arrays, mostly near background
Reference: not given
Reading: higher = stronger binding
Residues (chain): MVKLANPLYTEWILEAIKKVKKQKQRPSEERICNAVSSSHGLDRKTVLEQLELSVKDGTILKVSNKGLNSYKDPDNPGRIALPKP
Strand | E-score
CGATCTGC | 0.0334
ACTTGAAA | -0.259
CAGCGGGG | 0.292
CTGATCAG | -0.17
GGGCAGGA | -0.137
AAATAGGG | -0.0951
ATGATGTA | -0.0745
CGCGACGA | 0.154
ACATATGC | -0.074
TGCGCGCA | 0.438
ACGCGATC | 0.137
ATTCCTCA | -0.209
CGCACTAA | 0.0751
ATTTGCCA | -0.338
CTAGAGTC | -0.0283
AGCCGTTA | 0.28
GCTGTCCC | 0.0523
GGTCAGAA | -0.0425
ATACATAC | -0.0473
CATTCGCA | 0.0555
AAGCAATC | -0.107
ATCAACCC | 0.0755

For quick reference, copied from above (set 5):
Strand | E-score
GGTCAGAA | -0.0425
CTGATCAG | -0.17
CGCGACGA | 0.154
AGCCGTTA | 0.28
CGATCTGC | 0.0334
AAATAGGG | -0.0951
GGGCAGGA | -0.137
CAGCGGGG | 0.292
GCTGTCCC | 0.0523
ACTTGAAA | -0.259
ATGATGTA | -0.0745
ATACATAC | -0.0473
ATTTGCCA | -0.338
AAGCAATC | -0.107
ATTCCTCA | -0.209
CTAGAGTC | -0.0283
